Measured values collected from several papers.
Each numbered part is a random draw from the data of one study; scales do not carry over between parts.

Series 1
Target: Sal-like protein 4, full length isoform A (SALL4, Homo sapiens, UniProt Q9UJQ4, residues 1-1053)
UniProt Q9UJQ4, sequence (whole entry, looked up): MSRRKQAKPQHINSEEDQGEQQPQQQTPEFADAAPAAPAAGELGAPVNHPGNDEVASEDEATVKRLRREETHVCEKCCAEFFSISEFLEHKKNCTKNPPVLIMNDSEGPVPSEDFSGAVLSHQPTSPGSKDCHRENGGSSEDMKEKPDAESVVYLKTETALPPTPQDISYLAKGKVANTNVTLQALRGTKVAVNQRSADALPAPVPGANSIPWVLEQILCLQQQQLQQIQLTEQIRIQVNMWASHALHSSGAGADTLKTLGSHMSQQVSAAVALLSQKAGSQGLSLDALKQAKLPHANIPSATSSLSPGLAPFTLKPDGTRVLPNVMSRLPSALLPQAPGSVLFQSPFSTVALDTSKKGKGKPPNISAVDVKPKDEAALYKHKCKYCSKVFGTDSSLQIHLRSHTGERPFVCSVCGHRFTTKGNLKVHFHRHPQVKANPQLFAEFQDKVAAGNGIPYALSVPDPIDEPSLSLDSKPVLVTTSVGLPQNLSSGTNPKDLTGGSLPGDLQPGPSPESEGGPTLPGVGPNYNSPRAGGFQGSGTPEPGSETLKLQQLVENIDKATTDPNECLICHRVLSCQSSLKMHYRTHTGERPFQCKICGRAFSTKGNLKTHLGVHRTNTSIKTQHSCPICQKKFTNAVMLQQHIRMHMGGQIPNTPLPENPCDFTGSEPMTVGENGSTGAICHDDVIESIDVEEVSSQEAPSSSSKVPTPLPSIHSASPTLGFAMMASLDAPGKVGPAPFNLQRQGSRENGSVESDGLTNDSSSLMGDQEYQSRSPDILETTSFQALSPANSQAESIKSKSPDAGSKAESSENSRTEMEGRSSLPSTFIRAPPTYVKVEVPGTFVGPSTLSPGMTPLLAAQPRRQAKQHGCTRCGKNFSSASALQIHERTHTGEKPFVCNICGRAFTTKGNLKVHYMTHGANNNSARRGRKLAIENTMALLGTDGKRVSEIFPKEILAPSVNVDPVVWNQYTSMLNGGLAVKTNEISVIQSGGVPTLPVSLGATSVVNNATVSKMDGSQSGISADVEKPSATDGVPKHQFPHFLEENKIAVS
Method: universal PBM
Molecule type: double-stranded DNA, one strand shown
Matrix: in vitro
Concentration: 600 nM
Notes: 8-mer, flanks averaged, mean of replicates
Reading: higher = stronger binding
Sequence | E-score
AACCTAGG | -0.0204
AATCACCA | 0.154
ACGGGACG | -0.287

Series 2
Target: Interferon regulatory factor 7, full length, phosphomimetic (IRF7, Homo sapiens, UniProt Q92985, residues 1-503, S101K/S471D/S472D/S475D/S476D/S477D/S483D/S484D/S487D)
UniProt Q92985, sequence (whole entry, unmodified, looked up): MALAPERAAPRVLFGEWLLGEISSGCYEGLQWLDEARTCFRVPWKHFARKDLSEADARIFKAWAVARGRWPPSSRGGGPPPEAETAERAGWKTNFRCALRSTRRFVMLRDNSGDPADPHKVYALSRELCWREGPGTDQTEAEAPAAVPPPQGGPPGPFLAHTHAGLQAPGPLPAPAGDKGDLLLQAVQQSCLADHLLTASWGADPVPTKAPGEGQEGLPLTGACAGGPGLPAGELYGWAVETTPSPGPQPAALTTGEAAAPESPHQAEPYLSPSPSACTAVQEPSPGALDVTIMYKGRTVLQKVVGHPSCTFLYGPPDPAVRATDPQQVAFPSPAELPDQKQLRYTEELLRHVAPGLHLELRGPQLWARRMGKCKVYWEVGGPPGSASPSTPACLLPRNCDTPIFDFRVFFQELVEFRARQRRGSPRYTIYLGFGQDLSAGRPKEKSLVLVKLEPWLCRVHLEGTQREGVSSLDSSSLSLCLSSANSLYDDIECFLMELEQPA
Method: protein-binding microarray
Molecule type: double-stranded DNA, one strand shown
Matrix: in vitro
Concentration: 250 nM
Notes: 60-bp whole probe
Added: salmon DNA 0.4 mg/ml
Relative to: random background probes
Reading: higher = stronger binding
Sequence | log fluorescence [z-score]
GCCTAGCACGACGGTTTCCTTTTCGTGACGTGCTAGGTCTTGATTCGCTTGACGCTGCTG | 6.17
GCCTAGCACGACGGTATCCTTTGCCTGACGTGCTAGGTCTTGATTCGCTTGACGCTGCTG | -0.194
GCCTAGCACTTAGGACTGCTTCTCCGTTAGTGCTAGGTCTTGATTCGCTTGACGCTGCTG | 0.964

Series 3
Target: Histone acetyltransferase KAT6A, winged helix 1, GST fusion (KAT6A, Homo sapiens, UniProt Q92794, residues 1-85)
Method: protein binding microarray
Molecule type: double-stranded DNA, one strand shown
Matrix: in vitro
Concentration: not given
Notes: 8-mer, flanks averaged, mean of 2 arrays, mostly near background
Relative to: not given
Reading: higher = stronger binding
Target sequence (chain): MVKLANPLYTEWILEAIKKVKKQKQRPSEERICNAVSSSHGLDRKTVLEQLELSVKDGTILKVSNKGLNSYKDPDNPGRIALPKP
Sequence | E-score
GTTGCCTA | -0.0846
ATCAAGCA | -0.221
TATTCCCA | -0.152
ACGCTTAC | 0.145
CCGCTAAC | 0.254

Mixed results
Molecule | target | test | test system | setting | scale | quantity | value
PhoQ, residues 284 288 289 292 302 303 AAQSYM | PhoP, residues 12 14 15 18 19 IFFTR (Escherichia coli, UniProt P23836) | Sort-seq, measured: YFP reporter | E. coli | PhoQ-PhoP variant library, added: 10 µM Mg2+ | relative to: high Mg2+ state, higher = stronger signaling | fold induction | 4.01

Some of these lines once more (series 1):
Sequence | E-score
ACGGGACG | -0.287
